{"data": "Experimental data pooled from the literature", "note": "Each line is one published result; not all experiments were run side by side. ± marks the error that the study gave."}
{"Compound": "COc1ccc(Nc2ccnc3ccc(-c4ccc(S(=O)(=O)N5CCOCC5)cc4)cc23)cc1Cl", "assay": "thermodynamic", "test system": "aqueous medium", "solubility": "1 µM"}
{"Compound": "CCOC(=O)N1C[C@@H](c2ccc(C)nc2)N[C@@H](C2CCCCC2)C1", "assay": "shake-flask, LC-HRMS", "test system": "aqueous buffer", "setting": "16 h, pH 6.8", "solubility": "> 750 µM"}
{"Compound": "C[C@@H](O)[C@H](NC(=O)c1ccc(-c2ccc(Br)cc2)cc1)C(=O)NO", "test system": "aqueous buffer", "setting": "pH 7.4", "solubility": "< 4.21 µg/mL"}
{"Compound": "COc1cc(OC)c2c(=O)c(OC)c(-c3ccc(OC)c(OC)c3)oc2c1", "assay": "HPLC", "test system": "ethanol:butylene glycol 0:100", "solubility": "12050 ± 79 ppm"}
{"Compound": "c1ccc(CSc2ncnc3nc[nH]c23)cc1", "assay": "UV absorbance", "test system": "culture medium", "setting": "stock diluted to 0.40 mM", "solubility": "170 µM"}
{"Compound": "CNc1ccnc(Nc2cccc(-c3cccnc3)c2)n1", "test system": "citrate phosphate-buffered saline", "setting": "18 h, pH 7.4, 1% DMSO", "solubility": "57.9 ± 2.2 µM"}
{"Compound": "Cc1[nH]c(/C=C2\\N=C(c3ccc[nH]3)C=C2OCc2ccccc2)cc1Cc1ccc(OC(F)(F)F)cc1", "test system": "potassium phosphate buffer", "setting": "1.5 h, pH 7.4, room temperature", "solubility": "7.49 µM"}
{"Compound": "COc1cccc2c(NCc3ccccc3)nc(-n3c(N)nc4ccccc43)nc12", "test system": "aqueous buffer", "setting": "pH 6.2", "solubility": "0.09 µg/mL"}
{"Compound": "[2H]c1cc(C)c(NC(=O)c2cnc(Nc3cc(N4CCCCC4)nc(C)n3)s2)c(Cl)c1", "solubility": "< 1 µg/mL"}
{"Compound": "Clc1nc(OCc2ccccc2)c2[nH]cnc2n1", "assay": "UV absorbance", "test system": "culture medium", "setting": "stock diluted to 0.60 mM", "solubility": "180 µM"}
{"Compound": "Brc1cccc([C@H]2COC[C@H](C3CCCCC3)N2)c1", "assay": "shake-flask, LC-HRMS", "test system": "aqueous buffer", "setting": "16 h, pH 6.8", "solubility": "< 4 µM"}
{"Compound": "Cc1cc(/C=C/C#N)cc(C)c1Nc1ccnc(Nc2ccc(C#N)cc2)n1", "test system": "aqueous buffer", "setting": "24 h, pH 1.2, 37 °C", "solubility": "1.11 ± 0.07 µg/mL"}
{"Compound": "CCC1=C(CC)/C(=C/c2[nH]c(Cc3ccc(Cl)cc3)cc2Cc2ccc(Cl)cc2)N=C1c1ccc[nH]1", "test system": "potassium phosphate buffer", "setting": "1.5 h, pH 7.4, room temperature", "solubility": "< 3.13 µM"}
{"Compound": "CCCCCCCCCCCCCCCC(=O)NCCOC(=O)C[C@@H](CN)CC(C)C", "test system": "acetate buffer", "setting": "12 h, pH 4.5, 37 °C", "solubility": "3630 µg/mL"}
{"Compound": "Cc1nnc(Nc2ccnc3ccc(-c4ccc(S(=O)(=O)N5CCOCC5)cc4)cc23)nc1C", "assay": "thermodynamic", "test system": "aqueous medium", "solubility": "2 µM"}
{"Compound": "CCc1cc(C)cc(CC)c1-c1c(OC(=O)C2(C(F)(F)F)CC2)n2n(c1=O)CCOCC2", "test system": "PBS", "setting": "2 h, pH 7.4, 25 °C, 2% DMSO", "solubility": "332 µM"}
{"Compound": "Nc1nc2c(ncn2COCCO)c(=O)[nH]1", "test system": "methanol + ethanol", "setting": "24 h, 298.2 K, mass fraction 0.8", "solubility": "365 µg/mL"}
{"Compound": "CC(C)Nc1ccnc(Nc2cccc(C(C)(C)C)c2)n1", "test system": "citrate phosphate-buffered saline", "setting": "18 h, pH 7.4, 1% DMSO", "solubility": "10.1 ± 0.4 µM"}
{"Compound": "Cc1ccnc(NS(=O)(=O)c2ccc(NC(=O)c3cncc(Br)c3)cc2)n1", "test system": "aqueous buffer", "setting": "pH 7.4", "solubility": "65.3 µg/mL"}
{"Compound": "N#Cc1cc([C@@H]2COCC3(CCOCC3)N2)ccc1F", "assay": "shake-flask, LC-HRMS", "test system": "aqueous buffer", "setting": "16 h, pH 6.8", "solubility": "> 750 µM"}
{"Compound": "CC[C@H]1OC(=O)[C@H](C)[C@@H](O[C@H]2C[C@@](C)(OC)[C@@H](O)[C@H](C)O2)[C@H](C)[C@@H](O[C@@H]2O[C@H](C)C[C@H](N(C)C)[C@H]2O)[C@](C)(O)C[C@@H](C)C(=O)[C@H](C)[C@@H](O)[C@]1(C)O", "test system": "HBSS", "setting": "18 h, pH 7.4", "solubility": "661 µM"}
{"Compound": "CC[C@H](C)Nc1ccnc(Nc2cccc(-c3cccnc3)c2)n1", "test system": "citrate phosphate-buffered saline", "setting": "18 h, pH 7.4, 1% DMSO", "solubility": "15.9 ± 3 µM"}
{"Compound": "COc1ccccc1NC(=O)CSc1nnc(-c2ccc([N+](=O)[O-])cc2)n1-c1ccccc1", "test system": "aqueous buffer", "setting": "pH 7.4", "solubility": "< 2.47 µg/mL"}
{"Compound": "NC[C@H](NC(=O)[C@@H](Cc1c[nH]c2ccccc12)NC(=O)OCC1c2ccccc2-c2ccccc21)C(=O)N[C@@H](CCCCNC(=O)CN1CCN(CC(=O)O)CCN(CC(=O)O)CCN(CC(=O)O)CC1)C(N)=O", "test system": "aqueous buffer", "solubility": "≥ 5000 µM"}
{"Compound": "CCn1nccc1Nc1ccnc2ccc(-c3ccc(S(=O)(=O)N4CCOCC4)cc3)cc12", "assay": "thermodynamic", "test system": "aqueous medium", "solubility": "5 µM"}
{"Compound": "CC1(CNC(=O)c2ccc(C#CC#Cc3ccccc3)cc2)NC(=O)NC1=O (centres unmarked)", "test system": "aqueous buffer", "setting": "pH 7.4", "solubility": "< 2.65 µg/mL"}
{"Compound": "Cn1cncc1[C@@](N)(c1ccc(Cl)cc1)c1ccc2c(c1)c(-c1cccc(Cl)c1)cc(=O)n2C", "test system": "acetate buffer", "setting": "pH 4.5, 25 °C, final pH 4.35", "solubility": "32 ± 0.2 µg/mL"}
{"Compound": "Cc1cc(C)c(S(=O)(=O)N(C)CC(=O)N2CCC(C(N)=O)CC2)c(C)c1", "test system": "aqueous buffer", "setting": "pH 7.4", "solubility": "299 µg/mL"}
{"Compound": "O=C(Nc1ccc(OC(F)(F)F)cc1)N[C@H]1CC[C@H](Oc2ccc(C(=O)O)cc2)CC1", "test system": "deionised water", "setting": "30 min, pH 6.6, 37 °C, non-sink dissolution", "solubility": "0.534 ± 0.212 µg/mL"}
{"Compound": "COc1ccc(NC(=O)CCSc2nnc3scc(-c4ccc(C)cc4)n23)cc1", "test system": "aqueous buffer", "setting": "pH 7.4", "solubility": "< 3.03 µg/mL"}
{"Compound": "CCNc1ccnc(Nc2cccc(-c3cccnc3)c2)n1", "test system": "citrate phosphate-buffered saline", "setting": "18 h, pH 7.4, 1% DMSO", "solubility": "50.7 ± 0.7 µM"}
{"Compound": "CC(C)(C)c1nc(-c2cccc(N(Cc3cc(C(=O)[O-])ccc3OP(=O)([O-])[O-])S(=O)(=O)c3c(F)cccc3F)c2F)c(-c2ccnc(N)n2)s1.[Na+].[Na+].[Na+]", "assay": "HPLC, saturated solution", "test system": "simulated gastric fluid", "setting": "30 s, pH 1.2", "solubility": "350 µg/mL"}
{"Compound": "CC(C)Nc1ccnc(Nc2cccc(-n3ccnc3)c2)n1", "test system": "citrate phosphate-buffered saline", "setting": "18 h, pH 7.4, 1% DMSO", "solubility": "51.9 ± 2.9 µM"}
{"Compound": "CC(C)(C)c1sc2ncnc(Oc3c(F)cccc3OC(F)(F)F)c2c1-c1ccc(Cl)cc1", "test system": "simulated intestinal fluid", "setting": "pH 6.8", "solubility": "50 µM"}
{"Compound": "CC(C)(C)c1ccc([C@H]2COC[C@@H](c3ccc(Cl)cc3)N2)cc1", "assay": "shake-flask, LC-HRMS", "test system": "aqueous buffer", "setting": "16 h, pH 6.8", "solubility": "< 4 µM"}
{"Compound": "COc1cc(OC)c2c(=O)c(OC)c(-c3ccccc3)oc2c1", "assay": "HPLC", "test system": "ethanol:butylene glycol 50:50", "solubility": "2392 ± 15 ppm"}
{"Compound": "CN1C(=O)[C@@H](NC(=O)c2nnc(Cc3ccccc3)[nH]2)COc2cccnc21", "setting": "Biopharmaceutics Classification System", "solubility": "< 100 µg/mL"}
{"Compound": "CCOC(=O)N1C[C@@H](C2CCCC2)N[C@@H](c2cccc(Br)c2)C1", "assay": "shake-flask, LC-HRMS", "test system": "aqueous buffer", "setting": "16 h, pH 6.8", "solubility": "< 4 µM"}
{"Compound": "CC(=O)O[C@H]1C(=O)[C@@]2(C)[C@H]([C@H](OC(=O)c3ccccc3)[C@]3(O)C[C@H](OC(=O)[C@H](OC(=O)OCc4cc(P(=O)(O)O)ccc4OP(=O)(O)O)[C@@H](NC(=O)c4ccccc4)c4ccccc4)C(C)=C1C3(C)C)[C@]1(OC(C)=O)CO[C@@H]1C[C@@H]2O", "assay": "HPLC, saturated solution", "test system": "simulated gastric fluid", "setting": "30 s, pH 1.2", "solubility": "660 µg/mL"}
{"Compound": "O=C(Nc1ccccc1)C1(C(F)(F)F)CC1", "test system": "PBS", "setting": "2 h, pH 7.4, 25 °C, 2% DMSO", "solubility": "367 µM"}
{"Compound": "COc1ccc([N+](=O)[O-])cc1NC(=O)C(C)Oc1ccccc1C (centres unmarked)", "test system": "aqueous buffer", "setting": "pH 7.4", "solubility": "< 3.54 µg/mL"}
{"Compound": "CCc1n(Cc2ccc3ccccc3n2)cc[n+]1Cc1ccc2ccccc2c1.[Br-]", "test system": "aqueous 2-hydroxypropyl-β-cyclodextrin", "solubility": "> 10000 µM"}
{"Compound": "CCOC(=O)N1C[C@@H](c2cnn(C)c2)N[C@@H](c2ccc(C(F)(F)F)cc2)C1", "assay": "shake-flask, LC-HRMS", "test system": "aqueous buffer", "setting": "16 h, pH 6.8", "solubility": "> 750 µM"}
{"Compound": "CC(=O)[C@H]1CC[C@H]2[C@@H]3CCC4=CC(=O)CC[C@]4(C)[C@H]3CC[C@]12C", "test system": "PBS", "setting": "2 h, pH 7.4", "solubility": "17.9 µM"}
{"Compound": "Cc1c(C(=O)O)ccc2c3n(nc12)[C@@H]1[C@H](C3)N(CC2CC2)[C@@]2(C(=O)Nc3cc(Cl)ccc32)[C@H]1c1cccc(Cl)c1F", "test system": "FeSSIF", "solubility": "80 µg/mL"}
{"Compound": "CCn1c(SCC(=O)Nc2ccccc2OC)nnc1-c1ccco1", "test system": "aqueous buffer", "setting": "pH 7.4", "solubility": "15.6 µg/mL"}
{"Compound": "FC(F)(F)c1ccc([C@H]2COC[C@@H](C3CCCCC3)N2)cc1", "assay": "shake-flask, LC-HRMS", "test system": "aqueous buffer", "setting": "16 h, pH 6.8", "solubility": "< 4 µM"}
{"Compound": "CN(Cc1ccc(C2(C(F)(F)F)CC2)cc1)Cc1cccc2ccccc12.Cl", "test system": "PBS", "setting": "2 h, pH 7.4, 25 °C", "solubility": "3 µM"}
{"Compound": "CCOC(=O)N1C[C@@H](c2ccc(C(=O)OC)cc2)N[C@@H](c2ccc(N3CCCC3)cc2)C1", "assay": "shake-flask, LC-HRMS", "test system": "aqueous buffer", "setting": "16 h, pH 6.8", "solubility": "< 4 µM"}
{"Compound": "COc1cc(OC)c2c(=O)cc(-c3ccccc3)oc2c1", "assay": "HPLC", "test system": "ethanol:butylene glycol 0:100", "solubility": "12300 ± 76 ppm"}
{"note": "A few entries again:"}
{"Compound": "CC(C)Nc1ccnc(Nc2cccc(C(C)(C)C)c2)n1", "test system": "citrate phosphate-buffered saline", "setting": "18 h, pH 7.4, 1% DMSO", "solubility": "10.1 ± 0.4 µM"}
{"Compound": "CN(Cc1ccc(C2(C(F)(F)F)CC2)cc1)Cc1cccc2ccccc12.Cl", "test system": "PBS", "setting": "2 h, pH 7.4, 25 °C", "solubility": "3 µM"}
{"Compound": "COc1cc(OC)c2c(=O)c(OC)c(-c3ccccc3)oc2c1", "assay": "HPLC", "test system": "ethanol:butylene glycol 50:50", "solubility": "2392 ± 15 ppm"}
